Measured values of several laboratories.
Several values in a cell are separate wells, animals, samples, runs or records. ± gives the spread as reported.

NS(=O)(=O)OC[C@H]1C[C@@H](Nc2ccnc3cc(-c4cccc(SC(F)(F)F)c4)nn23)[C@H](O)[C@@H]1O
EC50 (HEK293T ATF4-FLuc reporter; ATF4 reporter gene, activator, luciferase reporter): 0.103 µM

CCn1cc(-c2cc(Cn3ccnc3)cc3c2CCN([C@H](c2cc(OC)ccn2)C2CC2)C3=O)c(C(F)(F)F)n1
EC50 (MDST8; cell growth, inhibitor; 120 h): > 30 µM

C[C@@]12C(=O)OC(=O)[C@]1(C)[C@H]1CC[C@@H]2O1
EC50 (HEK293T ATF4-FLuc reporter; ATF4 reporter gene, activator, luciferase reporter): > 9.96 µM

CCCCN1C[C@H](O)[C@@H](O)[C@@H](O)[C@H]1CO
IC50 (sample A patient fibroblasts; Gb3 level lowering, LC-MS/MS, item: Gb3 d18:1/24:0; 216 h): 18.4 µM

Nc1cccc(N)n1
inhibition (THP-1; pyroptotic LDH release; 2 µM, 40 min, added: LPS then nigericin): 16.6%

COc1cc(CCC(=O)O)ccc1O
IL-1β level (coculture, Caco-2, THP-1; ELISA; 50 ng/mL, 8 h, added: LPS, IFNγ, ATP; baseline: untreated control): 8.4 ± 0.7 fold change

COc1cc(OC)c(C=C2C(O)=Nc3ccccc32)c(OC)c1
inhibition (THP-1; pyroptotic LDH release; 2 µM, 40 min, added: LPS then nigericin): -0.899%

COc1c(O[C@@H]2O[C@H](CO)[C@@H](O)[C@H](O)[C@H]2O)c(C)cc2c1C(=O)c1c(O)cccc1C2=O
cell viability (HK-2 co-cultured with HepaRG; MTT; 66.67 µM, 48 h; baseline: untreated control): 92.8 ± 1.62%

CC(C)=CCNc1ncnc2c1ncn2[C@@H]1O[C@H](CO)[C@@H](O)[C@H]1O
EC50 (HEK293T ATF4-FLuc reporter; ATF4 reporter gene, activator, luciferase reporter): > 9.96 µM

O=C(O)/C=C/c1ccc(O)c(O)c1
transepithelial electrical resistance (Caco-2/THP-1 co-culture; TEER; 0.05 µg/mL, added: LPS 50 ng/mL; baseline: control): 75.2 ± 5.6%

Cc1cccc(-c2[nH]c(CNc3ccccc3F)nc2-c2ccc3ncnn3c2)n1
viability (MM1.S; XTT; 0.4 µM; baseline: untreated): 93%

Cn1cc(-c2ccc(-c3cncc(Cl)c3N3CCC4(CCNC4=O)CC3)cc2)cn1
log2 fold change (COLO 205; gene expression, microarray, item: FCGRT mRNA; concentration not given, 2 h; baseline: untreated cells): 2.76

CC(=O)OCC(=O)[C@@]12N=C(C)O[C@@H]1C[C@H]1[C@@H]3CCC4=CC(=O)C=C[C@]4(C)[C@H]3[C@@H](O)C[C@@]12C
inhibition (THP-1; pyroptotic LDH release; 2 µM, 40 min, added: LPS then nigericin): 50.2%

CC(C)C[C@H](NC(=O)C[C@H](O)[C@H](CC(C)C)NC(=O)[C@H](Cc1c[nH]cn1)NC(=O)CNC(=O)[C@@H](NC(=O)[C@H](C)NC(=O)[C@H](Cc1c[nH]c2ccccc12)NC(=O)[C@H](CCC(N)=O)NC(=O)[C@@H](Cc1ccccc1)NC(=O)COCCOCCNC(=O)CCC(C(=O)O)N1CCN(CC(=O)O)CCN(CC(=O)O)CCN(CC(=O)O)CC1)C(C)C)C(N)=O (stereo partly drawn) [lutetium-177 labelled]
tissue uptake (BALB/c nu/nu mice, bone; intravenous, 250 pmol, 1 h, added: PA 300 µg): 0.21 ± 0.04 %ID/g

Cc1cc(Nc2ncc(Cl)c(Nc3ccccc3S(=O)(=O)C(C)C)n2)c(OC(C)C)cc1C1CCNCC1
log2 fold change (CLB-BAR; phosphoproteomics LC-MS/MS, item: AKT3 phosphorylation; 200 nM, 60 min; baseline: untreated): -4.34

OCCNCCO
inhibition (THP-1; pyroptotic LDH release; 2 µM, 40 min, added: LPS then nigericin): 6.38%

COc1cnc2cccc(N3CCc4c(cc(Cn5ccnc5C)cc4-c4cn(C)nc4C(F)(F)F)C3=O)c2c1
EC50 (NUGC-3; cell growth, inhibitor; 120 h): 0.0313 µM

CC(C)OP(=O)(OC(C)C)C(Cc1cc(C(C)(C)C)c(O)c(C(C)(C)C)c1)P(=O)(OC(C)C)OC(C)C
EC50 (HEK293T ATF4-FLuc reporter; ATF4 reporter gene, activator, luciferase reporter): 5.86 µM

CC(=O)c1c(C)cc2cc(O)cc(O[C@@H]3O[C@H](CO)[C@@H](O)[C@H](O)[C@H]3O)c2c1O
cell viability (HK-2 co-cultured with HepaRG; MTT; 133.33 µM, 48 h; baseline: untreated control): 96 ± 5.99%

Cc1ncsc1CCO
inhibition (THP-1; pyroptotic LDH release; 2 µM, 40 min, added: LPS then nigericin): -3.08%

CCCCc1nc(Cl)c(CO)n1Cc1ccc(-c2ccccc2-c2nn[nH]n2)cc1
log2 fold change (human PBMC; RNA-seq, item: GJB2 mRNA; 10 µg/mL, 24 h; baseline: untreated control): 2.79

O=C(/C=C/C=C/C=C/C1CCCCC1)NC1=C[C@@](O)(/C=C/C=C/C=C/C(=O)NC2=C(O)CCC2=O)[C@@H]2O[C@@H]2C1=O
GI50 (SK-ES1; cell growth, CellTiter-Glo; 78 h): 10.8 µM

CC/C(=N\NC(=O)NCc1cccc(O)c1)c1ccc(O)c(C)c1O
protein level (SK-OV-3; Western blot, item: phospho-YAP; 10 µM, 6 h, 3D gellan gum culture, unit not given; baseline: total YAP): 0.25 ± 0.09

COc1cc(/C=C/C(=O)N2CCC=CC2=O)cc(OC)c1OC
mRNA level (MDA-MB-468; qRT-PCR, item: XIAP; 30 µM, 6 h; baseline: time zero): 69 ± 8.9%

CCn1cc(-c2cc(Cn3ccoc3=N)cc3c2CCN([C@@H](C)c2cc(OC)ccn2)C3=O)c(C(F)(F)F)n1
EC50 (HCC1438; cell growth; 120 h): > 30 µM

CCCCN1CCN(c2ccc3[nH]c(-c4ccc5[nH]c(-c6cc(OC)c(OC)c(OC)c6)nc5c4)nc3c2)CC1
growth percent (RXF 393; SRB; 10 µM, 48 h): -43.4%

Cn1c(Nc2nc3ccc(C(F)(F)F)cc3s2)nc2cc(C(=O)NCCOCCO)ccc21
fold change (SH-SY5Y; RNA-seq, item: HSPB8 mRNA; 5 µM, 5 h; baseline: untreated cells): 3.2

CCSCc1ccc2c(c1)c1c3c(c4c5cc(CSCC)ccc5n5c4c1n2[C@H]1C[C@](O)(C(=O)OC)[C@]5(C)O1)CNC3=O
EC50 (HEK293T ATF4-FLuc reporter; ATF4 reporter gene, activator, luciferase reporter): 1.5 µM

COc1cc(C(C)=O)cc(OC)c1O
inhibition (THP-1; pyroptotic LDH release; 2 µM, 40 min, added: LPS then nigericin): -1.1%

CCCCN1CCN(c2ccc3[nH]c(-c4ccc5[nH]c(-c6ccc(C(F)(F)F)cc6)nc5c4)nc3c2)CC1
growth percent (RXF 393; SRB; 10 µM, 48 h): -82%

c1coc(CNc2ncnc3[nH]cnc23)c1
inhibition (THP-1; pyroptotic LDH release; 2 µM, 40 min, added: LPS then nigericin): -12.6%

Clc1nc(NCc2ccco2)c2[nH]cnc2n1
ΔPSI (iPSC-derived cardiomyocytes; RNA-seq, item: chr9 exon ending 127879624; unit not given; baseline: DMSO minus compound): 0.213

CCCC(=O)[O-].[Na+]
transepithelial electrical resistance (Caco-2/THP-1 co-culture; TEER; concentration not given, added: LPS 100 ng/mL; baseline: control): 79.6 ± 7.6%

CCOC(=O)CSc1nc(-c2ccc(Cl)cc2)c2c(NC(=O)c3ccccc3)nnc-2[nH]1
cell growth (OVCAR-8; SRB; 10 µM, NCI60 single-dose screen; baseline: untreated): 102%

CS(=O)(=O)Nc1ccc(C(=O)O[C@@H](Cc2c(Cl)c[n+]([O-])cc2Cl)c2ccc(OC(F)F)c(OCC3CC3)c2)cc1OCC1CC1
EC50 (HEK293T ATF4-FLuc reporter; ATF4 reporter gene, activator, luciferase reporter): > 9.96 µM

CC[C@@H](N)C(=O)O
inhibition (THP-1; pyroptotic LDH release; 2 µM, 40 min, added: LPS then nigericin): 18.7%

CCc1c(-c2ccccc2)c(-c2ccccc2)nn1-c1ccccc1-c1cccc(OCC(=O)O)c1
mRNA level (mouse osteoclasts; RT-qPCR, item: Fcgr4; 1 µM, unit not given, added: M-CSF plus RANKL; baseline: bone marrow macrophages): 1.42 and 1.31 and 1.32

C[C@H](CS)C(=O)N1CCC[C@H]1C(=O)O
NOX2 and NOX4 protein levels (HUVEC; western blot; 10, 100, 1 µM, added: angiotensin II): decreased

CCN(CC)c1nccc(NCc2ccc(CNc3nc(Cl)ncc3F)cc2)n1
EC50 (HEK293T ATF4-FLuc reporter; ATF4 reporter gene, activator, luciferase reporter): 6.95 µM

CC(C)(C)NC(=O)c1cncn1C1CCN(c2ccc(-c3nnc(C(F)(F)F)o3)cn2)CC1
mRNA level (HDMEC; qPCR, item: L-GILZ; concentration not given, unit not given; baseline: DMSO): 2.5

O=C(C[C@@H](C(F)F)n1ccc(F)n1)N1CCC(O)(Cn2cnc3c(cnn3-c3ccc(F)cc3)c2=O)CC1
G2/M phase cells (CHP-212 parental; PI flow cytometry; 0.3 µM, 24 h): 10.8%

Nc1nccs1
MyBP-C level change (human iPSC cardiomyocytes; plate-normalised; concentration not given, hit retest; baseline: vehicle controls, SDs below control): 3.87 SD

COc1cc(/C=C/C(=O)O)ccc1O
IL-1β level (coculture, Caco-2, THP-1; ELISA; 500 ng/mL, 8 h, added: LPS, IFNγ, ATP; baseline: untreated control): 9 ± 0.7 fold change

CC(C)N(CCO/N=C1\CCCCC\C1=C\c1ccccc1)C(C)C
EC50 (HEK293T ATF4-FLuc reporter; ATF4 reporter gene, activator, luciferase reporter): > 9.96 µM

C[C@H]1Oc2cc(cnc2N)-c2c(nn(C)c2C#N)CN(C)C(=O)c2ccc(F)cc21
IC50 (Ba/F3 EML4-ALK variant 1 L1196Q; cell viability): 0.0192 µM

For quick reference, copied from above:
NS(=O)(=O)OC[C@H]1C[C@@H](Nc2ccnc3cc(-c4cccc(SC(F)(F)F)c4)nn23)[C@H](O)[C@@H]1O
EC50 (HEK293T ATF4-FLuc reporter; ATF4 reporter gene, activator, luciferase reporter): 0.103 µM

CCn1cc(-c2cc(Cn3ccnc3)cc3c2CCN([C@H](c2cc(OC)ccn2)C2CC2)C3=O)c(C(F)(F)F)n1
EC50 (MDST8; cell growth, inhibitor; 120 h): > 30 µM

C[C@@]12C(=O)OC(=O)[C@]1(C)[C@H]1CC[C@@H]2O1
EC50 (HEK293T ATF4-FLuc reporter; ATF4 reporter gene, activator, luciferase reporter): > 9.96 µM

CCCCN1C[C@H](O)[C@@H](O)[C@@H](O)[C@H]1CO
IC50 (sample A patient fibroblasts; Gb3 level lowering, LC-MS/MS, item: Gb3 d18:1/24:0; 216 h): 18.4 µM
